Measurements collected from several papers.
Values joined by “and” are separate records of one study, mostly repeats; a detail may differ. ± gives the spread as reported. In brackets after ≈: the same amount, converted by molar mass.

| SMILES | organism | test | system | conditions | scale | quantity | value |
| --- | --- | --- | --- | --- | --- | --- | --- |
| Cn1cc2c3c1C(=O)C(NCCc1ccc(O)cc1)=CC3=[N+](C)CC2 | Saccharomyces cerevisiae | cell growth, liquid culture | BY4741 | 100 µM, 24 h | – | inhibition | 3% |
| Nc1nc(-c2ccccc2)nc2[nH]nc(Nc3ccc(C(F)(F)F)cc3)c12 | coxsackievirus B3 | – | 31-1-93, NMRI mice, CVB3 chronic myocarditis | oral, 100 mg/kg twice daily, day 28, dosed days 0 to 6, score scale 0 to 7 | direction not given | clinical score | 0 |
| CCCCCOc1ccc(-c2ccc(-c3ccc(C(=O)N[C@H]4C[C@@H](O)[C@@H](OCC[N+](C)(C)C)NC(=O)[C@@H]5[C@@H](O)[C@@H](C)CN5C(=O)[C@H]([C@@H](C)O)NC(=O)[C@H]([C@H](O)[C@@H](O)c5ccc(O)cc5)NC(=O)[C@@H]5C[C@@H](O)CN5C(=O)[C@H]([C@@H](C)O)NC4=O)cc3)cc2)cc1 | Candida glabrata | – | 35315, neutropenic mouse, disseminated candidiasis | dose not given, average 24 h AUC over 7 days | – | free AUC/MIC for 1 log kill | 1.4 |
| CC(C)[C@@H]1NC(=O)[C@@H](CCCNC(=N)N)NC(=O)[C@H]([C@@H](C)O)NC(=O)[C@@H](CCCN)NC(=O)[C@H](Cc2ccccc2)NC(=O)[C@@H](Cc2ccccc2)NC1=O | Naegleria fowleri | – | – | trophozoites | – | IC90 | > 16 µg/mL |
| CCc1nn(C)c2nc(-c3ccc(C(=O)O)cc3)nc(NCc3ccc(F)cc3)c12 | Cryptosporidium parvum | – | HCT-8 | EC50, 6 h | baseline: DMSO control | parasite number | 101% and 140% and 117% and 120% |
| CN[C@H](CC(C)C)C(=O)N[C@H]1C(=O)N[C@@H](CC(N)=O)C(=O)N[C@H]2C(=O)N[C@H]3C(=O)N[C@H](C(=O)N[C@H](C(=O)O)c4cc(O)cc(O)c4-c4cc3ccc4O)[C@H](O)c3ccc(c(Cl)c3)Oc3cc2cc(c3O[C@@H]2O[C@H](CO)[C@@H](O)[C@H](O)[C@H]2O[C@H]2C[C@](C)(N)[C@H](O)[C@H](C)O2)Oc2ccc(cc2Cl)[C@H]1O | Streptococcus pyogenes | – | 10 isolates | serum 0% | – | MIC50 | 0.5 µg/mL (≈ 0.345 µM) |
| CC1(C)S[C@@H]2[C@H](NC(=O)Cc3ccccc3)C(=O)N2[C@H]1C(=O)O | Neisseria gonorrhoeae | broth microdilution | WHO P | 1.5 h | – | MIC | 64 µg/mL (≈ 191 µM) |
| CC1=NN(c2ccc(Cl)cc2)C(=O)C1=NNc1ccc(S(N)(=O)=O)cc1 | Saccharomyces cerevisiae | – | – | 200 µg/mL | – | glucose uptake | 30.5% |
| N=C(N)c1ccc(OCc2cc(COc3ccc(C(=N)N)cc3)cc(-c3ccccc3)c2)cc1 | Escherichia coli | checkerboard | ATCC 25922 | unit not given, with: rifampicin | lower = stronger synergy | FICI | 0.047 |
| CC[C@H]1OC(=O)[C@H](C)[C@@H](O[C@H]2C[C@@](C)(OC)[C@@H](O)[C@H](C)O2)[C@H](C)[C@@H](O[C@@H]2O[C@H](C)C[C@H](N(C)C)[C@H]2O)[C@](C)(O)C[C@@H](C)/C(=N\OCOCCOC)[C@H](C)[C@@H](O)[C@]1(C)O | Streptococcus viridans | – | 10 clinical isolates | – | – | MIC50 | 0.25 µg/mL (≈ 0.299 µM) |
| Cc1cc(OC(C)C)ccc1C(=O)C(C)(C)NC(=O)c1sccc1C | Botrytis cinerea | conidial germination | B05.10 | 1 µg/mL | – | inhibition | 66.1 ± 10% |
| CC(C)[C@@H]1NC(=O)[C@@H](CO)NC(=O)[C@@H](CCCNC(=N)N)NC(=O)[C@H](Cc2ccccc2)NC1=O | Naegleria fowleri | – | – | trophozoites | – | IC90 | > 16 µg/mL |
| CC1=NOC(=O)C1=NNc1ccc(S(N)(=O)=O)cc1 | Saccharomyces cerevisiae | – | – | 50 µg/mL | – | glucose uptake | 18.2% |
| CC(=O)NC[C@H]1CN(c2ccc(N3CCOCC3)c(F)c2)C(=O)O1 | Streptococcus pyogenes | – | 10 isolates | serum 25% | – | MIC50 | 0.5 µg/mL (≈ 1.48 µM) |
| CC1=NNC(=O)C1=NNc1ccc(S(N)(=O)=O)cc1 | Saccharomyces cerevisiae | – | – | 50 µg/mL | – | glucose uptake | 34.3% |
| CCc1c2c(nc3ccc(OC(=O)N4CCC(N5CCCCC5)CC4)cc13)-c1cc3c(c(=O)n1C2)COC(=O)[C@]3(O)CC | Taenia solium | trypan blue uptake | viable cysts in vitro | 50 µg/mL | – | cysticidal efficacy | 20% |
| CC1=NN(c2ccccc2)C(=O)C1=NNc1ccc(S(N)(=O)=O)cc1 | Saccharomyces cerevisiae | – | – | 200 µg/mL | – | glucose uptake | 26.1% |
| CC(C)n1ncc2c(C(=O)NCC3(C)CNC3)cc(C3CC3)nc21 | Enterovirus D68 | – | US/IL/14-18952, neonatal Swiss Webster mice | intraperitoneal, 50 mg/kg daily, day 0 post infection, immediate treatment | – | body weight | 2.6 g and 2 g and 1.94 g and 2.26 g |
| CC1=NCCNC(=O)C1=NNc1ccc(S(N)(=O)=O)cc1 | Saccharomyces cerevisiae | – | – | 100 µg/mL | – | glucose uptake | 27.6% |
| Cc1cc(Nc2ccc(S(F)(F)(F)(F)F)cc2)n2nc(C(C)(F)F)nc2n1 | Plasmodium falciparum | microscopy | human malaria patients | 400 mg, median | – | lag phase (Tlag) | 4.01 h |
| CC1=NN(c2cccc([N+](=O)[O-])c2)C(=O)C1=NNc1ccc(S(N)(=O)=O)cc1 | Saccharomyces cerevisiae | – | – | 100 µg/mL | – | glucose uptake | 28.6% |
| N=C(N)c1ccc(OCCC(CCOc2ccc(C(=N)N)cc2)c2ccccc2)cc1 (centres unmarked) | Escherichia coli | checkerboard | ATCC 25922 | unit not given, with: rifampicin | lower = stronger synergy | FICI | ≤ 0.047 |
| CC1=NN(c2ccc(F)cc2)C(=O)C1=NNc1ccc(S(N)(=O)=O)cc1 | Saccharomyces cerevisiae | – | – | 100 µg/mL | – | glucose uptake | 44.2% |
| CC(=O)ON=C1C=CC(=C(C#N)c2ccccc2)C=C1 | Candidozyma auris | – | ATCC MYA-5001 | concentration not given | – | antifungal activity | active |
| CC1=NN(c2ccccn2)C(=O)C1=NNc1ccc(S(N)(=O)=O)cc1 | Saccharomyces cerevisiae | – | – | 100 µg/mL | – | glucose uptake | 8.94% |
| CC(=O)N1CCC(C(=O)N2CCN3C(=O)c4cc(-c5ccccc5)ccc4NC(=O)C3C2)CC1 (centres unmarked) | Caenorhabditis elegans | – | N2 | 25 µM | – | median lifespan | 19 days |

For quick reference, copied from above:
| SMILES | organism | test | system | conditions | scale | quantity | value |
| --- | --- | --- | --- | --- | --- | --- | --- |
| Cc1cc(Nc2ccc(S(F)(F)(F)(F)F)cc2)n2nc(C(C)(F)F)nc2n1 | Plasmodium falciparum | microscopy | human malaria patients | 400 mg, median | – | lag phase (Tlag) | 4.01 h |
| CC1=NN(c2ccccc2)C(=O)C1=NNc1ccc(S(N)(=O)=O)cc1 | Saccharomyces cerevisiae | – | – | 200 µg/mL | – | glucose uptake | 26.1% |
| CC(C)[C@@H]1NC(=O)[C@@H](CCCNC(=N)N)NC(=O)[C@H]([C@@H](C)O)NC(=O)[C@@H](CCCN)NC(=O)[C@H](Cc2ccccc2)NC(=O)[C@@H](Cc2ccccc2)NC1=O | Naegleria fowleri | – | – | trophozoites | – | IC90 | > 16 µg/mL |
